Experimental data pooled from the literature.
Parts stem from different laboratories: compare values within a part only. Positions count from the first letter of the parent shown.

Set 1
Target: Protein max, full length (MAX, Homo sapiens, UniProt P61244-2, residues 1-151)
Technique: protein-binding microarray
Molecule type: double-stranded DNA, one strand shown
Medium: in vitro
Tested at: not given
Setting: k-mer, scored over probes, only values ≥0.25
Direction: higher = stronger binding
| Sequence | E-score |
| --- | --- |
| ACGCGGTC | 0.37 |
| CGTCACGC | 0.391 |
| CATGGGAA | 0.257 |
| CATGTGAC | 0.486 |
| ACATGTAT | 0.362 |
| AACCGCGT | 0.356 |
| CGCACCAC | 0.325 |

Set 2
Target: Sal-like protein 4, full length isoform B (SALL4, Homo sapiens, UniProt Q9UJQ4-2, residues 1-616)
Technique: universal PBM
Molecule type: double-stranded DNA, one strand shown
Medium: in vitro
Tested at: not given
Setting: 8-mer, flanks averaged, mean of replicates
Direction: higher = stronger binding
| Sequence | E-score |
| --- | --- |
| GCCCCCTA | -0.106 |
| GGTAAAAC | 0.021 |
| CTGCCTGC | -0.201 |
| ATAACGAG | 0.191 |
| GTGACGAA | -0.11 |
| AAAAGCTT | 0.127 |
| AACTTTTG | 0.152 |

Set 3
Target: CCNA1, cyclin fold, Cln2 fusion (human)
Technique: yeast growth competition, sequencing
Medium: yeast
Setting: weak parent motif
Reference: not given
Direction: higher = stronger binding
Parent: BRCA2 docking peptide (human); PSIKRNLLNEFDR; partner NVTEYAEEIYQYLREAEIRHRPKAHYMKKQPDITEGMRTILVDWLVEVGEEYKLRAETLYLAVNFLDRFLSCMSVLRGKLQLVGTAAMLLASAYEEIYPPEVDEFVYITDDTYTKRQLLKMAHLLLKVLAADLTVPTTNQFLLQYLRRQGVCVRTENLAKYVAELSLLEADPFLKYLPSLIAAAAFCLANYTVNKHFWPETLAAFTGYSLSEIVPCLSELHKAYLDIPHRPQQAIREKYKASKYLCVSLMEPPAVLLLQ
| Substitution | normalised enrichment score |
| --- | --- |
| PSIKRNLHNEFDR [L8H] | 0.16 |
| PQIKRNLLNEFDR [S2Q] | 0.556 |
| PSIKRNLLMEFDR [N9M] | 0.583 |
| PSIKRNLLGEFDR [N9G] | 0.246 |

Single results of other studies
| Molecule | target | test | test system | setting | how to read | endpoint | result |
| --- | --- | --- | --- | --- | --- | --- | --- |
| PhoQ, residues 284 288 289 292 302 303 ALAMYF | PhoP, residues 12 14 15 18 19 AQALL (Escherichia coli, UniProt P23836) | Sort-seq, item: YFP reporter | E. coli | PhoQ-PhoP variant library, added: 10 µM Mg2+ | reference: high Mg2+ state, higher = stronger signaling | fold induction | 14.2 |

Repeated from above (set 2):
| Sequence | E-score |
| --- | --- |
| GCCCCCTA | -0.106 |
| GGTAAAAC | 0.021 |
| CTGCCTGC | -0.201 |
